{"data": "Measurements from different studies", "note": "Parts stem from different laboratories: compare values within a part only. Substitutions count along the parent as printed."}
{"data": "Study 1", "target": "CCND3, cyclin fold, Cln2 fusion (human)", "technique": "yeast growth competition, sequencing", "medium": "yeast", "setting": "weak parent motif", "reference": "not given", "reading": "higher = stronger binding", "starting sequence": "REPIN1 docking peptide (human); QSFRGWVALVLHL; partner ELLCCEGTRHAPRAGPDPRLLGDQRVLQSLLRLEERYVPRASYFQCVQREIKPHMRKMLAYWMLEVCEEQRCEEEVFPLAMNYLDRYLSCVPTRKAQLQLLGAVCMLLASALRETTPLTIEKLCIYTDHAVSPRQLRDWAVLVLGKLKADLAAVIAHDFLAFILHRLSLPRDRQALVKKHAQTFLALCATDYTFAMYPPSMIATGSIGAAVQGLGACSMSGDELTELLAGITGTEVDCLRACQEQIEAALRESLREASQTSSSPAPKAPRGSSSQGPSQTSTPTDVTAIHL"}
{"Variant": "F3A", "normalised enrichment score": 0.0646}
{"Variant": "L9A", "normalised enrichment score": -0.417}
{"Variant": "R4A", "normalised enrichment score": -0.066}
{"Variant": "L11A", "normalised enrichment score": 0.0939}
{"Variant": "H12A", "normalised enrichment score": 0.277}
{"Variant": "V10A", "normalised enrichment score": -0.571}
{"data": "Study 2", "target": "RING finger protein unkempt homolog, zinc fingers 1-6, GST-SBP tag (UNK, Homo sapiens, UniProt Q9C0B0, residues 30-357)", "technique": "RNA Bind-n-Seq", "molecule type": "RNA", "medium": "in vitro", "tested at": "not given", "setting": "RNA with constant flanks, ends assumed", "reference": "input RNA pool", "reading": "higher = stronger binding", "shared flanks, not repeated": "GGGAGUUCUACAGUCCGACGAUC … CAACAGAGGAUUGAGCAUCA", "chain of UniProt Q9C0B0 (30-357, looked up)": "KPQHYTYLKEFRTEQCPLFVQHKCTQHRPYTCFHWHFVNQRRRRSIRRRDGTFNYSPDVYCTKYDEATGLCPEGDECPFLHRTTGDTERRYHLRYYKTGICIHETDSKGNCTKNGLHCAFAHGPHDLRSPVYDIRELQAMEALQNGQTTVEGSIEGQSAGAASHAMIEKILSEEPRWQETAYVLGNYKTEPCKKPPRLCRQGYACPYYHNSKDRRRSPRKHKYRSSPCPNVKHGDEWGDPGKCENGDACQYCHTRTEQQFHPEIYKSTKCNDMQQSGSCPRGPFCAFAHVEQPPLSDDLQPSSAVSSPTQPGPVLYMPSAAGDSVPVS"}
{"Sequence": "AGGUUCUGGCUGAUAGACUGUCGACAGAUUCAGGAGUCUGUUGCCUUUGCAUCACAAGUGUACCGAGAAAUUAUCUGUGUGCCAUAUAUGGCCAAAUUUGUAGUGUUUGCCAAGUCACAU", "bound/input enrichment": "0.201 ratio"}
{"Sequence": "CAGCCGCUCAUGUACGUGAAAGUGCUCAUCCAGGUGGGAUAUGAGCCUCUUCCUCCAACAACCGGACGAAAUAUUUUUGGGCGACAAGUAUGUCAGCUUCCUGGCCUCUUUUGCUAUGCU", "bound/input enrichment": "0.208 ratio"}
{"Sequence": "CCAUUUAAAGACAGAAUCAGCUGGGCUGGAGACCUUGACAAGAAAGAUGCAUCAAUCAACACCGAAAAUAUGCAGUUUAUACACAAUGGCACCUAUAUCUGUGAUGUCAAAAACCCUCCU", "bound/input enrichment": "0.145 ratio"}
{"Sequence": "UCCACCAAGAGCCUCUUCCUUGGCCAGAAGCUGAACCUUAUUCACAGUGAAAUCAGUAAUUCCGCCGGCUUUGAGGUGGAGGCCAUAAUCAAUCCUACCAAUGCUGACAUUGACCUUAAA", "bound/input enrichment": "0.123 ratio"}
{"Sequence": "ACACAACACAAACAUAAGGAGAGACUUAGUGCUUCACCUCAGGAGGUAGGAAAGCCAUAUUCCGAGUCUUUUCAGCCCAAUUUACAUAUUACAAAAGAUGCUGCAUCUAAUGAAAUUCCA", "bound/input enrichment": "0.717 ratio"}
{"Sequence": "AAAGUUUCAAACACUUUCACUUACGCCAGAGUACUGUAAAAUCUAUGUCUUUUCCAGCGUCCGCAUUAAGCCGGGCGCCGUUUGCCGUGUCCUUCGUUCCACGAGCCCUUUGGUUUUUAC", "bound/input enrichment": "0.125 ratio"}
{"data": "Study 3", "target": "ABI1, truncated, D143A, DHFR fusion (Arabidopsis thaliana)", "technique": "DHFR PCA, deep sequencing", "medium": "yeast", "setting": "methotrexate growth selection, single substitutions", "added": "(+)-ABA 1.4 µM", "reference": "wild-type fitted maximum", "reading": "higher = stronger binding", "starting sequence": "PYL1, truncated, DHFR fusion (Arabidopsis thaliana); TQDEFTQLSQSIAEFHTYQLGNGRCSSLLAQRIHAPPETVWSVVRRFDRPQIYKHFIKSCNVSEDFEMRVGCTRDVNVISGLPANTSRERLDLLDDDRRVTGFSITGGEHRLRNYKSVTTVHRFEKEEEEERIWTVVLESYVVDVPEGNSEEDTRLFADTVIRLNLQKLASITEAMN"}
{"Variant": "S63V", "relative binding score": "36.9%"}
{"Variant": "H34N", "relative binding score": "57.3%"}
{"Variant": "S63C", "relative binding score": "51.2%"}
{"Variant": "H34K", "relative binding score": "48.7%"}
{"Variant": "K168D", "relative binding score": "-5.7%"}
{"Variant": "V76T", "relative binding score": "-0.692%"}
{"Variant": "R45W", "relative binding score": "-4.03%"}
{"Variant": "G108W", "relative binding score": "-4%"}
{"Variant": "E129Q", "relative binding score": "55%"}
{"Variant": "D97G", "relative binding score": "39.5%"}
{"Variant": "E131W", "relative binding score": "23.4%"}
{"Variant": "T73Y", "relative binding score": "72.4%"}
{"Variant": "I79G", "relative binding score": "0.39%"}
{"Variant": "I172H", "relative binding score": "-3.32%"}
{"Variant": "P146K", "relative binding score": "-3.26%"}
{"Variant": "Q19P", "relative binding score": "66.1%"}
{"data": "Study 4", "target": "Ras GTPase-activating protein-binding protein 1, RRM domain (G3BP1, Homo sapiens, UniProt Q13283)", "technique": "RNA Bind-n-Seq", "molecule type": "RNA", "medium": "in vitro", "tested at": "1 µM", "setting": "whole 134-nt RNA, ends assumed", "added": "150 mM KCl", "reference": "input library", "reading": "higher = stronger binding", "shared flanks, not repeated": "GGGAGUUCUACAGUCCGACGAUC … UGGAAUUCUCGGGUGUCAAGG", "chain of UniProt Q13283 (whole entry, looked up)": "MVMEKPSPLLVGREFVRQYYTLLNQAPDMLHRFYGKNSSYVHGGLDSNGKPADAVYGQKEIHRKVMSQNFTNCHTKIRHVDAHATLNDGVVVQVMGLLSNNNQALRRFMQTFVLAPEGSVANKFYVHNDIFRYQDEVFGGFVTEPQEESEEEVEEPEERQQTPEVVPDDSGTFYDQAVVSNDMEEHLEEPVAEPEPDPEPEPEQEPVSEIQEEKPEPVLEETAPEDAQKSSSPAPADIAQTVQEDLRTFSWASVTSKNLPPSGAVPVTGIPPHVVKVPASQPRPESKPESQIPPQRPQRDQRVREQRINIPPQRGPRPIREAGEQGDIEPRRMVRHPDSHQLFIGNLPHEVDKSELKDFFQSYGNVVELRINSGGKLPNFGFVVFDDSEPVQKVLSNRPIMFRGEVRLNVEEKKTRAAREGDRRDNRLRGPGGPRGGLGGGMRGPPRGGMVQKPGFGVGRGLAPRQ"}
{"Sequence": "CUCAAGUCCUGUGCUACACAUCGUAUGUACCGAAUCGGUUUUUGGAAAGGUGGAAAGUAUUAUGUUACGCCGUUCGGAUCUGCACUUCCA", "log2 enrichment": -0.212}
{"Sequence": "CCUGUGCUACACAUCGUAUGUACCGAAUCGGGUUUUUUGGGGUUUUUUGGGGUUUUUUGGGAAAGUAUUAUGUUACGCCGUUCGGAUCUG", "log2 enrichment": -0.143}
{"Sequence": "UCCUCAAGUCCUGUGCUACACAUCGUAUGUACCGAAUCGGCGGGCGGGCGGGAAAGUAUUAUGUUACGCCGUUCGGAUCUGCACUUCCAG", "log2 enrichment": 0.101}
{"Sequence": "ACCAUGCAGGUGGGCAUCUUUGGGAAGUGGGGCAAGGGGGGGAUAGGGAGGGGGGUAACACUUUGGGAACAGGUGGUCCCAGGUCCUUUC", "log2 enrichment": 0.669}
{"Sequence": "CAAGUCCUGUGCUACACAUCGUAUGUACCGAAUCGGGGCCCGGCCCGGGGCCCGGGAAAGUAUUAUGUUACGCCGUUCGGAUCUGCACUU", "log2 enrichment": -0.981}
{"Sequence": "CCUCAAGUCCUGUGCUACACAUCGUAUGUACCGAAUCGGAGGGGAGGGGAGGAAAGUAUUAUGUUACGCCGUUCGGAUCUGCACUUCCAG", "log2 enrichment": -0.214}
{"Sequence": "UCCUGUGCUACACAUCGUAUGUACCGAAUCAAAUUUUUUUAAACCCCCCCAAACCCAAAAAAGUAUUAUGUUACGCCGUUCGGAUCUGCA", "log2 enrichment": -1.01}
{"Sequence": "UGGGAGGUGGAUUUUGUUUAUUUUUUUAGCUCAUUUCCAGGGGUGGGAAUUGUUUUUUAAUAUGUGUCAUGAAUAAAGUUGUUUUUGAAA", "log2 enrichment": 2.19}
{"Sequence": "GUCCUGUGCUACACAUCGUAUGUACCGAAUCGGAAAAAAGGAAAAAAGGGAAAAAAGGGAAAGUAUUAUGUUACGCCGUUCGGAUCUGCA", "log2 enrichment": 0.115}
{"note": "Repeated from above (study 3):"}
{"Variant": "G108W", "relative binding score": "-4%"}
{"Variant": "Q19P", "relative binding score": "66.1%"}
{"Variant": "E129Q", "relative binding score": "55%"}
